Published values gathered from unrelated publications.
Every numbered part comes from another study and shows a few of its results, in no order. Positions count from the first letter of the parent shown.
Sequence of UniProt O15294 (whole entry, looked up): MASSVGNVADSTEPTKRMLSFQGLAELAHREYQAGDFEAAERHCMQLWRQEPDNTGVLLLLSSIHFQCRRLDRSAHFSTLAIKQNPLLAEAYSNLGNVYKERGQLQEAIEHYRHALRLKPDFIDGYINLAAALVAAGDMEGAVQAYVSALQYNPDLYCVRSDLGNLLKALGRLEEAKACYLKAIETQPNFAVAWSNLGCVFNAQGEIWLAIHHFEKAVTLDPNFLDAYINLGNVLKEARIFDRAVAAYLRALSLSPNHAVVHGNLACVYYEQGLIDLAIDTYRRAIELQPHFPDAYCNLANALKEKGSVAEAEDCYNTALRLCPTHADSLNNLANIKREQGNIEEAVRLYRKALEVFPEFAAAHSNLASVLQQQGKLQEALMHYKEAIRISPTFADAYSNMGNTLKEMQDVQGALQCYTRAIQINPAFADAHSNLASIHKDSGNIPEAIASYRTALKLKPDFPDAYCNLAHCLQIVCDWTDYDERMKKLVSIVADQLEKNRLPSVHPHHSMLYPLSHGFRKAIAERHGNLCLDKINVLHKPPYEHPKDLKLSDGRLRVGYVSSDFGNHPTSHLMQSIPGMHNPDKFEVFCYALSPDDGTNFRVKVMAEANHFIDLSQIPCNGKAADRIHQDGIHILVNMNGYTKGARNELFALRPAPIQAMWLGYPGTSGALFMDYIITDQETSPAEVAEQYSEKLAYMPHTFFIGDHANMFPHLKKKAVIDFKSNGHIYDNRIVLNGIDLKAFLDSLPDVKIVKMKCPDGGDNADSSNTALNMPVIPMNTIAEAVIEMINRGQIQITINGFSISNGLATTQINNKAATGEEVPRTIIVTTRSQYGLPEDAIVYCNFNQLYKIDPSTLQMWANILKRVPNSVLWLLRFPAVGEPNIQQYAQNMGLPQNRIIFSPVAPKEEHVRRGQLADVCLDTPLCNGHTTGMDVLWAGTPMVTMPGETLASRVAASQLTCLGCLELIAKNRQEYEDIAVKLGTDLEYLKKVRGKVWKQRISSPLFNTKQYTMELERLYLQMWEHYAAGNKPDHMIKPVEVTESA

Block 1 — target: CCNA1, cyclin fold, Cln2 fusion (human); method: yeast growth competition, sequencing; sample: yeast; notes: weak parent motif; reference: not given; reading: higher = stronger binding
Starting sequence: viral docking peptide; KGVKRKLFAEDSS; partner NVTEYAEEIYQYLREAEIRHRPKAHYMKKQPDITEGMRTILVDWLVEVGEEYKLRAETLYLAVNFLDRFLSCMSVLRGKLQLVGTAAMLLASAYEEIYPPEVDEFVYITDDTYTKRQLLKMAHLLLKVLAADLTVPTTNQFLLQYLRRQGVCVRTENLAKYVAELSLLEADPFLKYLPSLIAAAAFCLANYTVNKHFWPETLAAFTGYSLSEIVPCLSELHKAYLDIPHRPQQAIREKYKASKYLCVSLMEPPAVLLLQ
Change	normalised enrichment score
F8G	0.292
F8S	-0.358
K4P	0.135
L7T	0.691
R5W	-0.105
A9I	1.14
G2H	1.1
S12I	1.3
K4S	0.861
G2F	1.36
K6I	0.413
L7A	-0.00337
K6N	0.438
L7W	-0.43
S12Y	0.803
D11F	0.802
F8V	0.274
F8K	0.104
F8Y	0.435
K4M	-0.346
S12C	1.15
K4T	0.148
L7V	0.466

Block 2 — method: universal PBM; form: double-stranded DNA, one strand shown; sample: in vitro; tested at: not given; reading: higher = stronger binding
Target: Sal-like protein 4, full length isoform B (SALL4, Homo sapiens, UniProt Q9UJQ4-2, residues 1-616)
Notes: 8-mer, flanks averaged, mean of replicates
Target sequence (chain): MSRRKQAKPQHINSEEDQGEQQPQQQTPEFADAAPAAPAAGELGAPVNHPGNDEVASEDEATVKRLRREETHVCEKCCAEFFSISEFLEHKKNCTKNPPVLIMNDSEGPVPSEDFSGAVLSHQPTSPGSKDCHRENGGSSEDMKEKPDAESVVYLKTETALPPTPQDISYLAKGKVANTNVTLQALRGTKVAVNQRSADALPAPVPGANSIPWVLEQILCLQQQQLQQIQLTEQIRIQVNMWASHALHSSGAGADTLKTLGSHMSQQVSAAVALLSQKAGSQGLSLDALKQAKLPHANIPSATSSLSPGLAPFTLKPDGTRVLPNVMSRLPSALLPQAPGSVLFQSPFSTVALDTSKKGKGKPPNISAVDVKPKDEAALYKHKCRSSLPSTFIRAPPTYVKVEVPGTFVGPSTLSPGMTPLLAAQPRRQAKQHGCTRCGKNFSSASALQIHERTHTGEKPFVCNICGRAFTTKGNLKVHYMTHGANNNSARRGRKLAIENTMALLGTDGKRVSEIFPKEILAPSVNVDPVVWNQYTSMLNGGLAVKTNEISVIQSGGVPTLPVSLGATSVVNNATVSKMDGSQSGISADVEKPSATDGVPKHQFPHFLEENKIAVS
Sequence	E-score
GCCTGAGA	-0.248
CGCGGTCA	-0.257
AGCTCCAT	0.0388
CTGCAACA	-0.0251
ACTTCGTA	-0.0866
ACGACGAT	-0.0105
ATCGATGG	0.0699
ACCTGCAC	-0.176

Block 3 — method: aptamer microarray, sandwich; form: DNA with 2'F-ANA; sample: in vitro; tested at: 200 nM; with: Cy3 exosite-II aptamer, 400 nM; reading: higher = stronger binding; sequence: GGTTGGTGTGGTTGG
Target: Prothrombin, mature alpha-thrombin (F2, Homo sapiens, UniProt P00734)
Notes: whole 15-mer aptamer, many near background
Modification	mean fluorescence intensity
2'F-ANA at 1 2 4 7 8 9 10 11 12 13 14 15	50 a.u.
2'F-ANA at 1 3 4 6 8 9 13 15	138 a.u.
2'F-ANA at 2 4 6 7 9 11 13 14	70.2 a.u.
2'F-ANA at 1 3 5 7 8 12 13 15	112 a.u.
2'F-ANA at 1 2 4 6 7 9 10 11 13 14	51.3 a.u.
2'F-ANA at 2 4 6 8 9 10 11 14 15	57.1 a.u.
2'F-ANA at 2 4 5 7 8 9 10 11 13 14 15	48.8 a.u.
2'F-ANA at 2 7 8 9 12 14 15	224 a.u.

Block 4 — method: RNA Bind-n-Seq; form: RNA; sample: in vitro; tested at: 365 nM; reference: no-protein control; reading: higher = stronger binding
Target: RNA binding protein fox-1 homolog 2, RRM domain, GST-SBP tag (RBFOX2, Homo sapiens, UniProt O43251-10, residues 100-194)
Notes: natural RNA segment, single round, ends assumed
Constant ends, left off below: GGGAGUUCUACAGUCCGACGAUC … UGGAAUUCUCGGGUGCCAA
Target sequence (chain): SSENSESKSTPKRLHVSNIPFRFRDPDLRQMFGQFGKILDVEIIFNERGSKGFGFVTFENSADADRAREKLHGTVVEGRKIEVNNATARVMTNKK
Sequence	RBNS enrichment (R)
AGAAAUUCAAGAAAAAAUGACAUUAAAUCAUCUGUGCAUUUCAUAUACAGGAGAGUUAUCUCCUUCCGAAGUUUCUGGUUCUUUUCUUUAUUCGUCCCCUCCCUCUGCUU	0.452
CAUGGGAGGAAAGGCUCCACUUGCCCUUAACUCAAGAAGCAGAGCUUGUGCUAUGCACGGGGUGUCUGAGCGGUGCCCAGGCCGUUCCACACAGACACCUCAGUGUUGGA	0.597
UCUCCAUAGGACUUUCAUAUCAUCUGCUACAUUGAAAGAAUAAGAUAUACUGAUCCUAAAACCAAGGGAAUUAACAUUCCUAAUCCUGCACUAUGAACAGAACCCUGCCC	0.512
ACCCCAGUUCUAGGGGGCAGAAACAGGACAUUUACAUCUAGUAGGGGCUGCAAGAGCAAAGAGGAAUAUCGUCUAAAGAUUUCUCUAUAUAUUUAAAACCCACAACUAAA	0.43
CUGGAAACGAUGAGAUUCCACAGACCCCCUAUGGGGGACCCACAACCCAAGACCGCAGACUGGGUGUAAGGGAUGCCCGGAACACCCUGACCAGGCCCCUCCCCUAAGAC	0.443
UCUAGUUAGUACUGGCAGGACAUACCCUUAACCAAAACAUGGAAUUUGGCACCUUUUCCUCACUUGUAGCUUCCCUAUGAUAGCUGAGCUAACCCUAAGGUUUCCUAGCU	0.283
CAGUGAACACCCCAGCAGCCUUUCAGCAAAUUGGCUUUGGACAUGGACCCUUCUCAGCCUGUACCAAGUACUGCAGCUCAGUGUCAUGAGCAUCCUUUGGAGCAGGUCAA	0.355
AUGUUAUUUCUUCCUCACAUCCAUCCAGUGGGGAGGACCCUCUGACUUAAGGGACCACCUUGGGAAGCUUCUGUAGCUUCAGCCAGGCAAGAAAGCUUCUUCCAACUUCU	0.308

Mixed results
P1: PafA, mature enzyme, eGFP fusion (Elizabethkingia meningoseptica, UniProt Q9KJX5); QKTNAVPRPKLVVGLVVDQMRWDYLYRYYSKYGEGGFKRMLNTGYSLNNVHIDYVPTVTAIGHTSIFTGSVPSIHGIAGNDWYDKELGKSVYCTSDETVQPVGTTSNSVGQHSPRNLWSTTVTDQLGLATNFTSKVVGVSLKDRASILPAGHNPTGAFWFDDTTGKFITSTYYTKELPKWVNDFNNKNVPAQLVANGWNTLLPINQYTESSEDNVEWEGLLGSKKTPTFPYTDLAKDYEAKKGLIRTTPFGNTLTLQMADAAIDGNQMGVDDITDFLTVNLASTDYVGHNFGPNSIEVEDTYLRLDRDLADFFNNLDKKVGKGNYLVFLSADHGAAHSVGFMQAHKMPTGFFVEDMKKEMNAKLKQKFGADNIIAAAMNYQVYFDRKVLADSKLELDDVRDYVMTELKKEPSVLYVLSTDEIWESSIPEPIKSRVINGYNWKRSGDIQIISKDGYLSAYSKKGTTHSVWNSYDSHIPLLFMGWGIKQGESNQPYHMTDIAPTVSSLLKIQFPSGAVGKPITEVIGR
Substance	tested on	assay	system	conditions	how to read	endpoint	value
SPTB (Homo sapiens, UniProt P11277)	BAZ1A (Homo sapiens, UniProt Q9NRL2)	cross-linking MS	cell fractions	with: DSSO		cross-linked residues	K630 to K387
GHHTHREYGYPSYQH	OGT (Homo sapiens, UniProt O15294)	binding, phage display NGS	peptide	panning round 2	reference: input library	minimum log2 enrichment ratio	3.17
DNAAF19 (Homo sapiens, UniProt Q8IW40)	NOP58 (Homo sapiens, UniProt Q9Y2X3)	cross-linking MS	cell fractions	with: DMTMM		cross-linked residues	K33 to E82
P1 T98G	tungstate, free oxyanion	microfluidic competitive inhibition	in vitro, cell-free expressed	not given, derived from inhibition constants, unchanged parent 2230 nM	lower = stronger binding	oxyanion analog dissociation constant	1.95 µM
NUP98 (Homo sapiens, UniProt P52948)	RRP1B (Homo sapiens, UniProt Q14684)	cross-linking MS	cell fractions	with: DSSO		cross-linked residues	Y802 to T685
NUP62 (Homo sapiens, UniProt P37198)	NUP58 (Homo sapiens, UniProt Q9BVL2)	cross-linking MS		hits only		interaction screen	cross-linked

Repeated from above (block 2):
Sequence	E-score
GCCTGAGA	-0.248
CGCGGTCA	-0.257
AGCTCCAT	0.0388
CTGCAACA	-0.0251
ACTTCGTA	-0.0866
ACGACGAT	-0.0105
ATCGATGG	0.0699
ACCTGCAC	-0.176
